# Assay results of several laboratories.
# A part holds a random share of what one study measured.

# Set 1
# Target: Probable WRKY transcription factor 33, C-terminal DNA-binding domain (WRKY33, Arabidopsis thaliana, UniProt Q8S8P5, residues 346-449)
# Technique: DNA-protein interaction ELISA
# Form: double-stranded DNA, one strand shown
# Matrix: in vitro, bacterial lysate
# Concentration: not given
# Notes: whole dsDNA probe, crude lysate protein
# Baseline: highest signal in screen
# Direction: higher = stronger binding
# Target sequence (chain): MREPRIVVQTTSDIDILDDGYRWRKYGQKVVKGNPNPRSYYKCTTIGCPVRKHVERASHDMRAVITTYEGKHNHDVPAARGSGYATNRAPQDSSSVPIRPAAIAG
Sequence,relative absorbance
AAAAAAAGTTCCAGGTCCGATGCTCAAAAA,62.5 % of maximum
AAAAAAGCTAGTCGATTCGGCTTAGAAAAA,40.9 % of maximum
AAAAAATATCCTATTCTAATTTATATAAAA,41 % of maximum
AAAAAATCATCTCTATGTTATTGTTGAAAA,29.4 % of maximum
AAAAAACACTTAACTGAGTGGGATTGAAAA,36.5 % of maximum
AAAAAAAAATTTCGAGCCTCGGCGTAAAAA,35.6 % of maximum
AAAAAAGCGTAAGCCTTGACAGTCGTAAAA,66.4 % of maximum
AAAAAAGGCGGTCGTAGTTGTGGGAGAAAA,98.9 % of maximum

# Set 2
# Target: Prothrombin, mature alpha-thrombin (F2, Homo sapiens, UniProt P00734)
# Technique: aptamer microarray, sandwich
# Form: DNA with 2'F-ANA
# Matrix: in vitro
# Concentration: 200 nM
# Notes: whole 15-mer aptamer, many near background
# Together with: Cy3 exosite-II aptamer, 400 nM
# Direction: higher = stronger binding
# Sequence: GGTTGGTGTGGTTGG
Modification,mean fluorescence intensity
2'F-ANA at 4 5 6 10 11 13 15,48.9 a.u.
2'F-ANA at 1 3 4 8 12 13 14,88.6 a.u.
2'F-ANA at 1 2 3 7 10 11 12 14 15,75.6 a.u.
2'F-ANA at 4 5 6 10 12 14,46.1 a.u.
2'F-ANA at 3 4 5 6 8 9 10 11,48.5 a.u.
2'F-ANA at 2 5 6 8 11 15,65.3 a.u.
2'F-ANA at 1 4 5 6 7 9 10 11 12 13,45.7 a.u.
2'F-ANA at 2 4 5 6 7 9 10 13 14,45 a.u.
2'F-ANA at 2 4 8 9 10 11 12 13,102 a.u.
2'F-ANA at 1 2 6 9 11 12 14 15,64.5 a.u.
2'F-ANA at 1 3 5 6 7 13,60.9 a.u.
2'F-ANA at 1 3 4 5 6 7 9 10 11 12 13 14 15,46.4 a.u.
2'F-ANA at 1 6 7 10 12 13 14,49.5 a.u.

# Set 3
# Target: Interferon regulatory factor 7, full length, phosphomimetic (IRF7, Homo sapiens, UniProt Q92985, residues 1-503, S471D/S472D/S475D/S476D/S477D/S483D/S484D/S487D)
# Sequence of UniProt Q92985 (whole entry, unmodified, looked up): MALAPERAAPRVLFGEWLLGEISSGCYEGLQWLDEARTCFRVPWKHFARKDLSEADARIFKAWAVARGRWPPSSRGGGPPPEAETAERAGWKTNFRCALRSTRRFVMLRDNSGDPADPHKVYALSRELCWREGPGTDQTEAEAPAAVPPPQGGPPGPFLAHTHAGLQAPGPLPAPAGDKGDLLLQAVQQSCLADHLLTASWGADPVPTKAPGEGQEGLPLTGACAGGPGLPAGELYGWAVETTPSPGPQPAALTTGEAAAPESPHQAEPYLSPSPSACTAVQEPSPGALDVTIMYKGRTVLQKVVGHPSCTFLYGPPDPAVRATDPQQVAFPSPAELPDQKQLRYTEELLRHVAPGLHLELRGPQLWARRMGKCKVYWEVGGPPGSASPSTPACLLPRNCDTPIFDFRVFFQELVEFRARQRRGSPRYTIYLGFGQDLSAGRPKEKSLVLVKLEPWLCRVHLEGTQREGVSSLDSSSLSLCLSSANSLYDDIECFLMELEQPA
# Technique: protein-binding microarray
# Form: double-stranded DNA, one strand shown
# Matrix: in vitro
# Concentration: 2200 nM top
# Notes: 60-bp whole probe
# Together with: salmon DNA 0.4 mg/ml
# Baseline: random background probes
# Direction: higher = stronger binding
# Constant ends, left off below: GCCTAGCAC … GTCTTGATTCGCTTGACGCTGCTG
Sequence,fitted relative affinity [z-score]
TTAGGTCTCCTACTGCTTAAGTGCTAG,0.41
GATTATAAAATGTGTGTTTGGTGCTAG,0.00816
GACGGTATCGACTATCGGTACGTGCTA,0.27
GACGATATCGGTCTCGGGACGTGCTAG,0.158
TAGACCTAGAAAGAAACCACGTGCTAG,-0.738
TTCTACTTCTGTTTTTGCTTGTGCTAG,2.72
GACGGACTGAGACTGGAGACGTGCTAG,-0.455

# Mixed results
Substance,target,test,system,setting,how to read,endpoint,result
"PhoQ, residues 284 288 289 292 302 303 ASTSDA","PhoP, residues 12 14 15 18 19 STWGI (Escherichia coli, UniProt P23836)","Sort-seq, measured: YFP reporter",E. coli,"PhoQ-PhoP variant library, together with: 10 µM Mg2+","baseline: high Mg2+ state, higher = stronger signaling",fold induction,10.7

# Repeated from above (set 1):
Sequence,relative absorbance
AAAAAATCATCTCTATGTTATTGTTGAAAA,29.4 % of maximum
AAAAAACACTTAACTGAGTGGGATTGAAAA,36.5 % of maximum
AAAAAAAAATTTCGAGCCTCGGCGTAAAAA,35.6 % of maximum
